Assay results gathered from unrelated publications.
UniProt Q07912, sequence (whole entry, looked up): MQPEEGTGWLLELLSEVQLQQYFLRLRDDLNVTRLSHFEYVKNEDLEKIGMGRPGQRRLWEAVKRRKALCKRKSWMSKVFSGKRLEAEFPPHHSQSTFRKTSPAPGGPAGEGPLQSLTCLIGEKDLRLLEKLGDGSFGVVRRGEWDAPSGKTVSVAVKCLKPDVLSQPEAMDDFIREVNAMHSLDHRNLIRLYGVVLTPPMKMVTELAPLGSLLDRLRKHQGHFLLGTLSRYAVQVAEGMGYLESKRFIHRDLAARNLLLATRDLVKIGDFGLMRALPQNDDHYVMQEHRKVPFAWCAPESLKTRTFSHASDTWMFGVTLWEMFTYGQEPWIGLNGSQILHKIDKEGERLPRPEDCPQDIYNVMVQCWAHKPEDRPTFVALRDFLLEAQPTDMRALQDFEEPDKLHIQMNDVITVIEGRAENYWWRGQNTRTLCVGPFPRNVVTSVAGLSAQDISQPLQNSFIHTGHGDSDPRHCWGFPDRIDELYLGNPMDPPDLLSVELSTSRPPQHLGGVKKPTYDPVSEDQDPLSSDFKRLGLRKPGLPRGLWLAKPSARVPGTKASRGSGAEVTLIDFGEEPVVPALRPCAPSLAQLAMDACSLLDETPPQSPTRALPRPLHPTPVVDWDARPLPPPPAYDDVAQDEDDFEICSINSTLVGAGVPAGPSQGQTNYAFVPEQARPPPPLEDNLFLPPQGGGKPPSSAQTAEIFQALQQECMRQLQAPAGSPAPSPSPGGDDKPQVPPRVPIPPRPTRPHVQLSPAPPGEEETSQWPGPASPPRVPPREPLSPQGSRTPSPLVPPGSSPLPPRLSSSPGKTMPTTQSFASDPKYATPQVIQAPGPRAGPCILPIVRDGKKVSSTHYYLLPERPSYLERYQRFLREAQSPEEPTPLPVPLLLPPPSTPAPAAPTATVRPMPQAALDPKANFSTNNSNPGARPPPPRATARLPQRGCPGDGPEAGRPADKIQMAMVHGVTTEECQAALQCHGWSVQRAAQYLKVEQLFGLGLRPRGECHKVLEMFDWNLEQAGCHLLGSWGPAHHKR
UniProt Q14164, sequence (whole entry, looked up): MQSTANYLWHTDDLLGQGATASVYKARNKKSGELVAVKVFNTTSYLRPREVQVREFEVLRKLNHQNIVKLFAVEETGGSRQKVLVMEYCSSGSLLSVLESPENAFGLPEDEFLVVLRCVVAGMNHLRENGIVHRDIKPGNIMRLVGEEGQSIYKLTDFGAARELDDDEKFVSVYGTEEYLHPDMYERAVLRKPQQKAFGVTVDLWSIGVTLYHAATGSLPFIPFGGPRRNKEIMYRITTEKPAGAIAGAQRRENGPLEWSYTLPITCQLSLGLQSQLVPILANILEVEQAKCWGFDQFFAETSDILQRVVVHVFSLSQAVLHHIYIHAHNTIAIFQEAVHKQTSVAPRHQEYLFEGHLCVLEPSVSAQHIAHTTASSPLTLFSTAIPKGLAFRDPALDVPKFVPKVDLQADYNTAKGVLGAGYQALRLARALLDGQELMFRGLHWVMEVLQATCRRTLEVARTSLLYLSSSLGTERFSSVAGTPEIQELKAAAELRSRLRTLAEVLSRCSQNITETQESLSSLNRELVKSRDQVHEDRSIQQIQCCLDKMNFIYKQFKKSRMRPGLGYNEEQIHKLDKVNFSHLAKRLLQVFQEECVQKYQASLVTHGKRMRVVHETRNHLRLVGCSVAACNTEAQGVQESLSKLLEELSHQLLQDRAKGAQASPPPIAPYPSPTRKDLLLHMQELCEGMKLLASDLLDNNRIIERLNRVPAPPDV
UniProt P46734, sequence (whole entry, looked up): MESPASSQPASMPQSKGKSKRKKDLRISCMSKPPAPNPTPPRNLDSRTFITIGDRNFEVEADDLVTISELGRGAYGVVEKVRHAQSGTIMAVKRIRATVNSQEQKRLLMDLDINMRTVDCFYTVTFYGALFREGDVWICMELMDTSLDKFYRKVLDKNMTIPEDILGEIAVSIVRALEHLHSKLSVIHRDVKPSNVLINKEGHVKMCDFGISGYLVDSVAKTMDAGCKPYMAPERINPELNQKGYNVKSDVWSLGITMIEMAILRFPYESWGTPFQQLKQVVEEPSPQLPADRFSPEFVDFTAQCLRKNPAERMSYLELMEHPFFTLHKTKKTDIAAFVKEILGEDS

NCc1cc2c(cc1F)C(=O)N(C1CCC(=O)NC1=O)C2 (stereo not drawn)
concentration (male CD-1 mouse, plasma; intravenous, 1 mg/kg, 2 h): 6.5 ng/mL

N=C(N)c1ccccc1OCc1cccc(COc2ccccc2C(=N)N)c1
haemolysis (haemolysis; sheep; 200 µg/mL, 20 h): 0%

CCN1CCN(Cc2ccc(NC(=O)c3ccc(C)c(NC(=O)c4cncc(-c5cccs5)c4)c3)cc2C(F)(F)F)CC1
AUC(0-t) (mouse, plasma; intraperitoneal, 15 mg/kg, single dose): 1600 ng·h/mL

Cc1cc([C@@H](C)Nc2ccccc2C(=O)O)c2nc(N3CCC(F)(F)CC3)c(C#N)c(=O)n2c1
remaining binding (EGFR (Homo sapiens, UniProt P00533); binding, competition with immobilised ligand; 10 µM): 80%

N#C[C@@]12C[C@@H]1[C@@H](n1cnc3c(N[C@@H](C4CCC4)C4CC4)nc(I)nc31)[C@H](O)[C@@H]2O
bioavailability (male Wistar rat, plasma; oral, 3 mg/kg): 13.1%

O=C(c1ccc(F)cc1)C1CCN(CCn2c(=O)[nH]c3ccccc3c2=O)CC1
compound remaining (metabolic stability, mass spectrometry; human, liver microsomes; 1 h): 31.2%

COc1cc(-c2cncc3c2CN(C)Cc2cc(N4CCNCC4)ccc2-3)cc(OC)c1OC
remaining activity (TNK2 (Homo sapiens, UniProt Q07912); enzyme activity, inhibitor; 1 µM): 77%

COc1cccc(-c2n[nH]c(SCc3ccccn3)n2)c1OC
concentration (female Sprague-Dawley rat, plasma; oral, 30 mg/kg, 15 min, single dose): 45400 ng/mL

CNc1ncc2c(/C=C/C(=O)N3CCC(OC)CC3)nn(Cc3cccc(C(F)(F)F)c3)c2n1
remaining activity (IKBKE (Homo sapiens, UniProt Q14164); enzyme activity, inhibitor, radiometric; 1 µM): 98%

COc1ccc([C@@H](O)c2cc(-c3ncnc4cc(N5CCOCC5)ccc34)c(F)cc2Cl)nn1
AUC(0-t) (human, plasma; oral, 100 mg, multiple doses, twice daily, patients): 3230 ng·h/mL

O=C1CC[C@H](N2Cc3cc(N4CCN(CC5CCN(c6ccc([C@@H]7c8ccc(O)cc8CC[C@@H]7c7ccccc7)cc6)CC5)CC4)ccc3C2=O)C(=O)N1
Cmax (female Sprague-Dawley rat, plasma; oral, 20 mg/kg, fasted): 1430 ng/mL

C=CC(=O)N1CCC(COCC(=O)N2CCN(c3nc(-c4cnc(N)nc4C(F)F)nc(N4CCOC[C@@H]4C)n3)CC2)CC1
remaining binding (MAP2K3 (Homo sapiens, UniProt P46734); binding, competition with immobilised ligand; 1 µM): 80%

For quick reference, copied from above:
COc1cc(-c2cncc3c2CN(C)Cc2cc(N4CCNCC4)ccc2-3)cc(OC)c1OC
remaining activity (TNK2 (Homo sapiens, UniProt Q07912); enzyme activity, inhibitor; 1 µM): 77%
